Measurements gathered from unrelated publications.
Each numbered part is a random draw from the data of one study; scales do not carry over between parts. Positions count from the first letter of the parent shown.

Sample 1
Target: RNA binding protein fox-1 homolog 2, RRM domain, GST-SBP tag (RBFOX2, Homo sapiens, UniProt O43251-10, residues 100-194)
Method: RNA Bind-n-Seq
Form: RNA
Sample: in vitro
Concentration: 365 nM
Notes: natural RNA segment, single round, ends assumed
Relative to: no-protein control
Reading: higher = stronger binding
Shared flanks, not repeated: GGGAGUUCUACAGUCCGACGAUC … UGGAAUUCUCGGGUGCCAA
Residues (chain): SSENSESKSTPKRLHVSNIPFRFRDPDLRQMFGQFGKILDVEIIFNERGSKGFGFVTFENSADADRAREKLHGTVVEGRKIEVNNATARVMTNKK
Strand	RBNS enrichment (R)
AUAUCUUUUCUUGUAUUCCCAUAUUUCUAGACAAUGAUUUUUGUAAGACAAUAAAUUUAUUCAUUAUAGAUAUUUGCGCCUGCUCUGUUUACUUGAAGAAAAAAGCACCC	0.546
GCGUUUUGCACUACUCUUUCCAUUUAUAUGCUGCAAACAACUACAGUCUUUGAAAUAUGGAAAAUCAGCAGUCUAAAGUUUGUUUUAAAUUCUAAAUUUAAAAAAUCUUC	0.626
GCUUUUUCUUCUCUCCCUCUAUGAAUUCUUAUAAUGUCCCUUUUUCUGUAAGUUUUUGAGAGGCAAUUGGCAAUUUAGGAGGCAGCAGGGUCUGUUUUGGUCAAAUCUUG	0.466
UUCAGUACCACUUGUUUUUAGCAGACUGUCAUGGCUGCAGCUCUGUCUCUCUUGGGGUAAACUUGCUACCCCUGUGGUUGGGUCUAUGGUGGGAAAUGAAACAGUGUUCU	0.519
GUGGGGAAAGGGAGGUCAGAGUACCAGGAACUGCUGAUGUCUGCUCUAAAGUACUUGAGUGGUGCUAAGCUGGGCCUUGCAGAGCUUAGCUUAUAGCAGACCUUGAGCCU	1.1
UGAGGAAAUGGUUGUCUCCCUGUCCCCAGGCAGGCCUCUUCCCCUCCCUGUCCUGUAAAUAUCCCUCCCCUCUCCAGUCCACCCUCAUCUCCCACCAAGAUCAGCCACCU	0.645
CACAUUCCUGCAGACAGCUAGUUGUUUUAUAGAAAUGUUAGGUUUCAUGUGUGUUACUAUUAGGUAUAUAUAGGCUAGAUUGUGCCCACUAUCCUGGAAGGUGGCAAGUU	1
ACUGUGGCUGGAAUGUGGUGGGCUUGGUGACUUUUCUUUCUGCCCUCCCUUGAGUGCUCACCCUCCACCUACCAGACUGGAAGCUGACUUUAAGUCCUCUAAUAAAAAUA	2.02
CACUUUUGGCCAAGGGUCUUGGGUAACAUCCUGGGUUGAAGUUGCCAAGCUUCAUCUUACUGAAAAAGACUCAGACCCUCAGCAAAGAACAAUGGAGAGAAAGUAGGUGA	0.325
UUUUUGCUCUAAUCUCUCUGCCGAAAGUCAAAGUGAUGGGAGAAUUGGUAUACUGGUAUGACUACGUCUUAAGUCAGAUUUUUAUUUAUGAGUCUUUGAGACUAAAUUCA	0.253
UAGUGUCCCAGUACAAAAAGGCUGUAAGAUAGUCAACCACAGUAGUCACCUAUGUCUGUGCCUCCCUUCUUUAUUGGGGACAUGUGGGCUGGAACAGCAGAUUUCAGCUA	0.43
GUAAGAGCAGAGCACCUCCCACUGGGGGUGGGGUAUUUAAAAAUUAACUCAUUAGUAUCAUAAACGUCAAGGAUUGAUUGGACCAGGCAAGAGCCAUGUUUUUGAGAAGG	0.695

Sample 2
Target: Interferon regulatory factor 5, full length, phosphomimetic (IRF5, Homo sapiens, UniProt Q13568-2, residues 1-514, K96S/S451D/S453D/S456D/S462D)
Method: protein-binding microarray
Form: double-stranded DNA, one strand shown
Sample: in vitro
Concentration: 250 nM
Notes: 60-bp whole probe
Together with: salmon DNA 0.4 mg/ml
Relative to: random background probes
Reading: higher = stronger binding
Shared flanks, not repeated: GCCTAGCAC … GTCTTGATTCGCTTGACGCTGCTG
Strand	log fluorescence [z-score]
TTAGATCTCAGTCTCGATTAGTGCTAG	0.911
AAAGATTTATCAAATGTGGGAGTGCTA	0.266
ACCATTCTCGGGACTCACCTGGTGCTA	0.206
TACGAACTGGGGACTGGAGACGTGCTA	-0.247
GACAATATCGGGTATCGAGACGTGCTA	3.95
TTAGATATCAGTTTCGATAAGTGCTAG	9.78
GACAATTTCAGTATCGAGACGTGCTAG	5.08
TTAGGACTGCTTCTACTTTAGTGCTAG	-0.209
CCTGAAATCTCTTTCCTTACGTGCTAG	0.847
TCATTTTTTTTTGTATTACTGTGCTAG	1.52
GACGGACTGGGTCTCGAGACGTGCTAG	-0.548
TTAGATTTGGGGACTGGATTAGTGCTA	-0.0992
GACGGTCTCGGTATCCGGACGTGCTAG	0.352
TCACTTCCCCATCTTGTACTGTGCTAG	0.667
TACGATTTCAGTATCGAGACGTGCTAG	3.72
GACGATAGCGGGTATCGAGACGTGCTA	0.783
TCAAGTATGTTCCTTATTACTGTGCTA	0.612
TCAACTCTGTGCTTTCCTACTGTGCTA	0.434
GACGGGATCGACACTGGGGACGTGCTA	-0.28
TTAGGTTTAGGGTTTCGGTTAGTGCTA	6.05
TTAGGACTGGACTTTCGGGTAGTGCTA	6.91
GTAGGTATCGGGACTGGGTTAGTGCTA	1.55
TTAGAACTGGGCACTGGATTAGTGCTA	-0.726

Sample 3
Target: ABI1, truncated, D143A, DHFR fusion (Arabidopsis thaliana)
Method: DHFR PCA, deep sequencing
Sample: yeast
Notes: methotrexate growth selection, single substitutions
Together with: (+)-ABA 0.032 µM
Relative to: wild-type fitted maximum
Reading: higher = stronger binding
Parent: PYL1, truncated, DHFR fusion (Arabidopsis thaliana); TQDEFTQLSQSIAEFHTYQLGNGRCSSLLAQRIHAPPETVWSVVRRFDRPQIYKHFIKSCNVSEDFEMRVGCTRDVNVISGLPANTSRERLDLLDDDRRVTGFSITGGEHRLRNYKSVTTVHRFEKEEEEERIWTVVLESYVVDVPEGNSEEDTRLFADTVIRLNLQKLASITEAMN
Variant	relative binding score
Q19Y	5.65%
P50N	-13.1%
D65K	8.44%
R155H	-0.162%
V145T	-5.88%
L28D	1.45%
S11E	38.9%
T160Q	-2.49%
T160N	1.5%
E67D	24.8%
T173K	-6.66%
E4H	12.1%
I105Q	-1.59%
G102K	2.09%
V43H	-12.4%
D95W	-8.34%
V78C	28.2%
D144W	-4.34%
S150A	9.81%

Sample 4
Target: CCNA1, cyclin fold, Cln2 fusion (human)
Method: yeast growth competition, sequencing
Sample: yeast
Notes: weak parent motif
Relative to: not given
Reading: higher = stronger binding
Parent: CDC25A docking peptide (human); PPHRRRLLFACSP
Variant	normalised enrichment score
PPHRRRLLFWCSP [A10W]	0.372
PPHRRELLFACSP [R6E]	0.191
PPHRRRLLQACSP [F9Q]	0.26
PEHRRRLLFACSP [P2E]	0.301
PPHRRRQLFACSP [L7Q]	0.291
PPHRRRLLFAMSP [C11M]	0.00455
PPHRIRLLFACSP [R5I]	0.343
PPHRRRLLAACSP [F9A]	0.468
PPHSRRLLFACSP [R4S]	-0.149
VPHRRRLLFACSP [P1V]	0.107
PPHRRRLLVACSP [F9V]	0.255
PPHTRRLLFACSP [R4T]	0.281
PPHRRRLLFACLP [S12L]	0.235
PPNRRRLLFACSP [H3N]	0.216
PPHRRRLQFACSP [L8Q]	-0.0429
PPHRRRLLFACWP [S12W]	0.408
PPHRNRLLFACSP [R5N]	-0.127
PPHRRRVLFACSP [L7V]	0.308
QPHRRRLLFACSP [P1Q]	0.329
PPHRSRLLFACSP [R5S]	0.0434
PPHRRRLLFACFP [S12F]	0.153
PPHRCRLLFACSP [R5C]	0.085
PPHRRRLAFACSP [L8A]	0.274
PPHRRRPLFACSP [L7P]	0.0756
PPHRRRLLFECSP [A10E]	0.134

Sample 5
Target: Histone acetyltransferase KAT6A, winged helix 1, GST fusion (KAT6A, Homo sapiens, UniProt Q92794, residues 1-85)
Method: protein binding microarray
Form: double-stranded DNA, one strand shown
Sample: in vitro
Concentration: not given
Notes: 8-mer, flanks averaged, mean of 2 arrays, mostly near background
Relative to: not given
Reading: higher = stronger binding
Residues (chain): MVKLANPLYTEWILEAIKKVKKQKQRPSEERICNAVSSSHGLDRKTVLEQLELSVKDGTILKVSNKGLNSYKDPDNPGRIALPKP
Strand	E-score
AGTCGTGG	-0.141
GTGGTCGA	-0.183
GAAAACTA	-0.017
GTCTACAC	-0.0979
AACAACCG	0.00247
GTAAGACA	-0.0327
AAACTTAA	-0.056
ATCCCTCC	-0.0984
ATCGACCC	-0.143
CAAATTCA	-0.116
CATCTGAC	-0.162
CAATACCC	0.0321
ACGTCACA	-0.262
TAAATTCA	-0.17
CTCTCTCC	0.00771
CAGAATCG	0.0403
AACGGTTG	-0.0347
CGATAGTC	0.021
AAGGTCCT	-0.189
ACCTACGT	-0.0597
AGTTCTTG	-0.101
CCTTATAG	-0.11
ATGAACCC	0.0142
CATATCAC	-0.0379
CACGCCAA	-0.115

Excerpt of the above (sample 1):
Strand	RBNS enrichment (R)
UUCAGUACCACUUGUUUUUAGCAGACUGUCAUGGCUGCAGCUCUGUCUCUCUUGGGGUAAACUUGCUACCCCUGUGGUUGGGUCUAUGGUGGGAAAUGAAACAGUGUUCU	0.519
GUGGGGAAAGGGAGGUCAGAGUACCAGGAACUGCUGAUGUCUGCUCUAAAGUACUUGAGUGGUGCUAAGCUGGGCCUUGCAGAGCUUAGCUUAUAGCAGACCUUGAGCCU	1.1
UGAGGAAAUGGUUGUCUCCCUGUCCCCAGGCAGGCCUCUUCCCCUCCCUGUCCUGUAAAUAUCCCUCCCCUCUCCAGUCCACCCUCAUCUCCCACCAAGAUCAGCCACCU	0.645
CACAUUCCUGCAGACAGCUAGUUGUUUUAUAGAAAUGUUAGGUUUCAUGUGUGUUACUAUUAGGUAUAUAUAGGCUAGAUUGUGCCCACUAUCCUGGAAGGUGGCAAGUU	1
ACUGUGGCUGGAAUGUGGUGGGCUUGGUGACUUUUCUUUCUGCCCUCCCUUGAGUGCUCACCCUCCACCUACCAGACUGGAAGCUGACUUUAAGUCCUCUAAUAAAAAUA	2.02
CACUUUUGGCCAAGGGUCUUGGGUAACAUCCUGGGUUGAAGUUGCCAAGCUUCAUCUUACUGAAAAAGACUCAGACCCUCAGCAAAGAACAAUGGAGAGAAAGUAGGUGA	0.325
